Published values pooled from the literature.
Lines come from different studies, so protocols differ. Numbers after ± are the reported error.
UniProt Q16288, sequence (whole entry, looked up): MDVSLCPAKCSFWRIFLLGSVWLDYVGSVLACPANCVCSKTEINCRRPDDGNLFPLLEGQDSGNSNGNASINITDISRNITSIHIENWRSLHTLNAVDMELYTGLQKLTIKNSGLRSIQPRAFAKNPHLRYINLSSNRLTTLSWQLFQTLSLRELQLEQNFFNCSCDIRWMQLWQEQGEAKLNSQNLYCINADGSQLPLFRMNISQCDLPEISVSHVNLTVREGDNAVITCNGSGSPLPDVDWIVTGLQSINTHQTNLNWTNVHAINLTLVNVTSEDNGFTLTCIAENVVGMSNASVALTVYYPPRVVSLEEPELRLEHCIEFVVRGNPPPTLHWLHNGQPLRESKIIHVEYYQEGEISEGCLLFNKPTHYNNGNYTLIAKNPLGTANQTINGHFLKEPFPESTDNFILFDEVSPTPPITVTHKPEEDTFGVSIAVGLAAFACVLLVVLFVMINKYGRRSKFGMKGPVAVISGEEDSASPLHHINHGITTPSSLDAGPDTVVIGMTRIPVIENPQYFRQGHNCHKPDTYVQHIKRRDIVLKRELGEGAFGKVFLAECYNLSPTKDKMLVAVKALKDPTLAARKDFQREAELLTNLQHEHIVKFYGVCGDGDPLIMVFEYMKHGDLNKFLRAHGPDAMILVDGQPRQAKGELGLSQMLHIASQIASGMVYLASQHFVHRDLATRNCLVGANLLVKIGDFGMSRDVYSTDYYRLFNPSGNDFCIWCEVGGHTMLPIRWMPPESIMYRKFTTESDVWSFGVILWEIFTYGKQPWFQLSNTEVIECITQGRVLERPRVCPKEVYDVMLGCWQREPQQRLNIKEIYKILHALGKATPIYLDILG

COc1ccccc1-c1n[nH]c2nc(NC3CCN(C(=O)Cc4ccc(F)cc4F)CC3)ncc12  relative abundance (bead binding, competition bead pull-down, measured: LINJ.06.0030; Leishmania donovani extract; 10 µM; reference: vehicle): 0.99
CNC(=S)N/N=C/c1ccc(OCc2ccccc2)cc1  glutathione peroxidase activity (OD450) (IMR-32; measured: GPX3; 400 µg/mL, 24 h; higher = more activity): 0.101 a.u.
O=C1NC2(CC2)COc2ncc(F)cc2[C@H]2COCCN2c2ccn3ncc1c3n2  serum total bilirubin (Sprague-Dawley rat, male, serum; oral, 5 mg/kg/day, end of recovery, 4-week subacute toxicity): 1.3 ± 0.2 µmol/L
CC(C)[C@H](NC(=O)[C@H](CCCNC(=N)N)NC(=O)[C@@H]1CCCN1C(=O)[C@@H](NC(=O)[C@H](C)NC(=O)[C@H](Cc1ccc(O)cc1)NC(=O)[C@H](CCC(N)=O)NC(=O)[C@H](CCCCN)NC(=O)[C@H](CCCNC(=N)N)NC(=O)[C@@H]1CCCN1C(=O)[C@H](CCC(=O)O)NC(=O)[C@@H](NC(=O)[C@H](C)N)[C@@H](C)O)[C@@H](C)O)C(=O)N[C@@H](Cc1ccccc1)C(=O)N[C@@H](Cc1c[nH]c2ccccc12)C(=O)N[C@H](C(=O)N[C@@H](CC(=O)O)C(=O)N[C@@H](C)C(=O)N1CCC[C@H]1C(=O)NCC(=O)NCCOCCOCCOCCOCCOCCOCCOCCOCCOCCOCCOCCOCCC(=O)N[C@@H](CS)C(N)=O)[C@@H](C)O  selectivity ratio (H1819; phage binding; 10 min, 37 °C; reference: control phage): 0.96 ± 0.098
CC(C)(C)C(=O)OCOP(=O)(OCOC(=O)C(C)(C)C)C1CCCN(O)C1=O (stereo not shown)  log TGI (IGROV-1): -5.56 log M
CSCC[C@H](NC(=O)[C@@H](NC(=O)[C@H](CCC(N)=O)NC(=O)[C@H](CO)NC(=O)[C@@H](N)C(C)C)[C@@H](C)O)C(=O)N[C@@H](CCCNC(=N)N)C(=O)N[C@@H](CCC(N)=O)C(=O)N[C@H](C(=O)N[C@@H](C)C(=O)N[C@H](C(=O)N1CCC[C@H]1C(=O)N[C@@H](CC(C)C)C(=O)N[C@@H](CC(C)C)C(=O)N[C@@H](Cc1c[nH]c2ccccc12)C(=O)N[C@@H](Cc1ccccc1)C(=O)N[C@@H](Cc1c[nH]c2ccccc12)C(=O)N[C@H](C(=O)NCC(=O)N[C@@H](CO)C(=O)N[C@@H](CC(C)C)C(=O)NCCOCCOCCOCCOCCOCCOCCOCCOCCOCCOCCOCCOCCC(=O)N[C@@H](CS)C(N)=O)[C@@H](C)O)C(C)C)[C@@H](C)O  selectivity ratio (H358 lung adenocarcinoma; cell binding, phage binding, measured: output/input phage; 10 min, 37 °C; reference: control phage): 29 ± 6.6
O=c1n(CCNCCOS(=O)(=O)c2ccccc2)c(=O)n(S(=O)(=O)c2ccccc2)c(=O)n1S(=O)(=O)c1ccccc1  viability (A549; cell growth or viability, MTT; 25 µg/mL, 72 h): 49.1%
CC(C)C12OC1C1OC13C1(C)CCC4=C(COC4=O)C1CC1OC13C2OC(=O)CCC(=O)OC1OC(CO)C(O)C(O)C1O (stereo not shown)  IC50 (human Astrocyte; cell growth or viability, XTT; 47 h): 5.31 µM
COc1ccccc1-c1n[nH]c2nc(N[C@H]3CC[C@H](NS(=O)(=O)CC(C)C)CC3)ncc12  relative abundance (bead binding, competition bead pull-down, measured: LINJ.28.2870; Leishmania donovani extract; 10 µM; reference: vehicle): 1.22
O=C(O)c1ccc(-c2nc(-c3ccccc3Cl)c3sccn23)cc1  mean fluorescence intensity (HEL; flow cytometry, measured: surface CD61; 0.1 mM; higher = more expression): 35900 a.u.
C[C@@H]1O[C@H]2O[C@@H]3C4(O)C(=O)c5cccc(O)c5C(=O)C4(O)O[C@]3(C)[C@]21O (stereo partly shown)  selectivity index (HeLa and Vero; MTT; reference: CC50 Vero over EC50 HeLa): 0.88
CC(C)C[C@H](NC(=O)[C@@H]1CCCN1C(=O)[C@H](CCCCN)NC(=O)[C@@H](N)CO)C(=O)N1CCC[C@H]1C(=O)N[C@@H](CCC(=O)O)C(=O)N[C@H](C(=O)N[C@H](C(=O)N[C@@H](CC(=O)O)C(=O)N[C@@H](CCC(=O)O)C(=O)N[C@@H](Cc1ccc(O)cc1)C(=O)NCC(=O)NCCOCCOCCOCCOCCOCCOCCOCCOCCOCCOCCOCCOCCOCCOCCOCCOCCOCCOCCOCCOCCOCCOCCOCCOCCC(=O)N[C@@H](CCCCNC(=O)CC[C@H](C(=O)O)N1CCN(CC(=O)O)CCN(CC(=O)O)CC1)C(=O)N1CCN(CCCN(C)c2ccc3nccc(C(=O)NCC(=O)N4CC(F)(F)C[C@H]4C#N)c3c2)CC1)[C@@H](C)O)C(C)C  EC50 (MRC5; T-cell-mediated lysis; 16 h, effector to target 5:1): 0.0392 nM
CC[C@H](C)[C@H](NC(=O)[C@H](CO)NC(=O)[C@H](Cc1ccc(O)cc1)NC(=O)[C@H](Cc1ccc(O)cc1)NC(=O)[C@H](CC(N)=O)NC(=O)CNC(=O)[C@H](CO)NC(=O)[C@H](Cc1ccc(O)cc1)NC(=O)[C@H](CO)NC(=O)[C@H](CO)NC(=O)[C@H](CC(N)=O)NC(=O)COCCOCCNC(=O)CN1CCN(CC(=O)O)CCN(CC(=O)O)CCN(CC(=O)O)CC1)C(=O)N[C@@H](CC(C)C)C(N)=O [copper-64 labelled]  tissue uptake (dynamic PET; KPC mouse Ptf1a-CreER tdTomato, metastases; intravenous, 4.6 MBq/mouse, 9.5 min, 84 d after tamoxifen): 14.4 %ID/mL
Cc1cc(Oc2nc(N3CC[C@@H](c4ccncc4)C3)ncc2F)[nH]n1  IC50 (MG-63; cell proliferation; bone cancer): > 100 µM
CC(C)[C@H]1NC(=O)C[C@H]2/C=C/CCSSC[C@@H](NC1=O)C(=O)N[C@H](Cc1cccc3ccccc13)C(=O)NCC(=O)O2  inhibition (NTRK3 (Homo sapiens, UniProt Q16288); enzyme activity, inhibitor; 10 µM): -1.5%
CCOC(=O)C1(Cc2ccccc2)Oc2cc(F)ccc2N(Cc2ccccc2)C1=O (stereo not shown)  inhibition (HaCaT; cell growth or viability, CCK-8; 12.5 µM, 72 h): 0.19%

A few entries again:
C[C@@H]1O[C@H]2O[C@@H]3C4(O)C(=O)c5cccc(O)c5C(=O)C4(O)O[C@]3(C)[C@]21O (stereo partly shown)  selectivity index (HeLa and Vero; MTT; reference: CC50 Vero over EC50 HeLa): 0.88
CC(C)C[C@H](NC(=O)[C@@H]1CCCN1C(=O)[C@H](CCCCN)NC(=O)[C@@H](N)CO)C(=O)N1CCC[C@H]1C(=O)N[C@@H](CCC(=O)O)C(=O)N[C@H](C(=O)N[C@H](C(=O)N[C@@H](CC(=O)O)C(=O)N[C@@H](CCC(=O)O)C(=O)N[C@@H](Cc1ccc(O)cc1)C(=O)NCC(=O)NCCOCCOCCOCCOCCOCCOCCOCCOCCOCCOCCOCCOCCOCCOCCOCCOCCOCCOCCOCCOCCOCCOCCOCCOCCC(=O)N[C@@H](CCCCNC(=O)CC[C@H](C(=O)O)N1CCN(CC(=O)O)CCN(CC(=O)O)CC1)C(=O)N1CCN(CCCN(C)c2ccc3nccc(C(=O)NCC(=O)N4CC(F)(F)C[C@H]4C#N)c3c2)CC1)[C@@H](C)O)C(C)C  EC50 (MRC5; T-cell-mediated lysis; 16 h, effector to target 5:1): 0.0392 nM
